Experimental data from different studies.
PFF0160c E182D: Dihydroorotate dehydrogenase (quinone), mitochondrial (PFF0160c, Plasmodium falciparum, UniProt Q08210, E182D)
Chain of UniProt P10721 (whole entry, unmodified, looked up): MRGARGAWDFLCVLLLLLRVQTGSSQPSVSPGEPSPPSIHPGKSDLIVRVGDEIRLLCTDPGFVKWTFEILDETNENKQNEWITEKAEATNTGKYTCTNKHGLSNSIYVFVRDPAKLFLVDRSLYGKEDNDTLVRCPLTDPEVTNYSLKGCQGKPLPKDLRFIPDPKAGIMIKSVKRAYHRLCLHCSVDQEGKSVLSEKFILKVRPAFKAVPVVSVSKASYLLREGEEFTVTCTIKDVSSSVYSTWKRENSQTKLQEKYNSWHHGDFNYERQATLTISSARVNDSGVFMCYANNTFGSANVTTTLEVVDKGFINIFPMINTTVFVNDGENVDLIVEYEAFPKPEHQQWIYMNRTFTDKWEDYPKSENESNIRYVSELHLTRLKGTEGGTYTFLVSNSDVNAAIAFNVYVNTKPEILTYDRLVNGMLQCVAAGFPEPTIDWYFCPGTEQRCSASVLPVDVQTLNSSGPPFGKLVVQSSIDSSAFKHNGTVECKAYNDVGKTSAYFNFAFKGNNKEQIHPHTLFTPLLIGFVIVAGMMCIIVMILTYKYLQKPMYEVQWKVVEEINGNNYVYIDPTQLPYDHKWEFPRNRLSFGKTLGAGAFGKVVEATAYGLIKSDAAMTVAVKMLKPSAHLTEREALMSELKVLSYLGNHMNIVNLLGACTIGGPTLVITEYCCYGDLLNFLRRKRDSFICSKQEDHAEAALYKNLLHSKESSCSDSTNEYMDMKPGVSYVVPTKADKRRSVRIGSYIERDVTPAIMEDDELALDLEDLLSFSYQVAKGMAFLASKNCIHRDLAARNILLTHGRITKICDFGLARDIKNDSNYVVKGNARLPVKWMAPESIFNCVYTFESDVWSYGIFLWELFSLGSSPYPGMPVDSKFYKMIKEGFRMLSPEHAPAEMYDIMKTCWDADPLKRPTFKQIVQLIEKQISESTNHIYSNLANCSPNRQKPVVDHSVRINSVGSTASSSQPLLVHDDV
Chain of UniProt Q07002 (whole entry, looked up): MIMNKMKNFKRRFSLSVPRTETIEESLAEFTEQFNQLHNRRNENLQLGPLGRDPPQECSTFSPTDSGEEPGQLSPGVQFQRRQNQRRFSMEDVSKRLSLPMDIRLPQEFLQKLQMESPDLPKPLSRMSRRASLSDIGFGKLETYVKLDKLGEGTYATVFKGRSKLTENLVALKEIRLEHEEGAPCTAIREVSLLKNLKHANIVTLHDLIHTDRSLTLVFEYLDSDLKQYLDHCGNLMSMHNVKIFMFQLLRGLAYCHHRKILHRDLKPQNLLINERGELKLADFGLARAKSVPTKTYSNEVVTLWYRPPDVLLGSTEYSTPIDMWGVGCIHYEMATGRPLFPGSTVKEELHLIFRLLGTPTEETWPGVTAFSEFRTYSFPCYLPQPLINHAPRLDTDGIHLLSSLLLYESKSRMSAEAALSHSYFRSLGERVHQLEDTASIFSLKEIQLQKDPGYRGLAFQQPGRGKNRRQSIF
Chain of UniProt Q9HBY8 (whole entry, looked up): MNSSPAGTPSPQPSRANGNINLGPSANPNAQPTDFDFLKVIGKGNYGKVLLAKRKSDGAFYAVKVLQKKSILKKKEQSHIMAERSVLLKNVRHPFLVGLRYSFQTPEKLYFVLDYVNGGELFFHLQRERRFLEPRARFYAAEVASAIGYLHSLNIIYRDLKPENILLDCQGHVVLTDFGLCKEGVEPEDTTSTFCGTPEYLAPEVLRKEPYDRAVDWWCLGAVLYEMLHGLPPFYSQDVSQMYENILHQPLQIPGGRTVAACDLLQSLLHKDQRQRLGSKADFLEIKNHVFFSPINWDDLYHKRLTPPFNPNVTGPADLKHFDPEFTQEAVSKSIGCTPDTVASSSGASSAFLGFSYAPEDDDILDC
Chain of UniProt Q00537 (whole entry, looked up): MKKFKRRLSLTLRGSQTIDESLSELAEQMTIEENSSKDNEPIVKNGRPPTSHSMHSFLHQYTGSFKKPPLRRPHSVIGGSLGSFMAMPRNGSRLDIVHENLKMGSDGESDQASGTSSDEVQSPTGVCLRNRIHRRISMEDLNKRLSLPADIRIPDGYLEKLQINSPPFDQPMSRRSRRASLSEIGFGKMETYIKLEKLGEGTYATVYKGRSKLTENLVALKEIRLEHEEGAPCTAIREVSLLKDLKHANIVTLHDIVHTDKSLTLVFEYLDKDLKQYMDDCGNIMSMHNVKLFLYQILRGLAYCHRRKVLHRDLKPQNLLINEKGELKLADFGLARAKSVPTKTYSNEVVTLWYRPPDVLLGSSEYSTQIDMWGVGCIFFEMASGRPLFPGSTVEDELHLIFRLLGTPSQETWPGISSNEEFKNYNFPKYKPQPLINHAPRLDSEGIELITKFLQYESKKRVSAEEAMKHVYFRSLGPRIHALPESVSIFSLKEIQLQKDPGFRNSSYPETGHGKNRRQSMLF

SMILES | tested on | assay | system | setting | quantity | result
C/C=C1/CN2CC[C@@]34c5cc(O)ccc5N(C)[C@]35OC[C@@]4(C(=O)OC)[C@H]1C[C@H]25 |  |  | male Sprague-Dawley rat, plasma | intravenous, 1 mg/kg | AUC(0-inf) | 303 ng·h/mL
Cc1nn(C)cc1-c1nc2c(N3CCN(Cc4ccc(Cl)cc4)CC3)c(Cl)cnc2[nH]1 | Mast/stem cell growth factor receptor Kit (KIT, Homo sapiens, UniProt P10721, V559D) | binding, competition with immobilised ligand |  | 1 µM | remaining binding | 2.5%
CCc1nonc1NC(=O)c1oc2c(C)c(C)ccc2c1C | PFF0160c E182D | enzyme activity, inhibitor, absorbance |  |  | IC50 | 523 nM
CC[C@H](C)[C@@H]1NC(=O)[C@H](CCCNC(=N)N)NC(=O)C[C@@H](c2cccc3ccccc23)NC(=O)[C@@H]2CSSC[C@H](NC(=O)C[C@@H](c3cccc4ccccc34)NC(=O)[C@H](CCCNC(=N)N)NC(=O)[C@@H]3CCCN3C(=O)[C@@H]3CCCN3C1=O)C(=O)N[C@@H](Cc1ccccc1)C(=O)N1CCC[C@H]1C(=O)N[C@@H](CC(=O)O)C(=O)N[C@@H](CC(=O)O)C(=O)N[C@@H](Cc1ccccc1)C(=O)N2 |  | metabolic stability | human, liver microsomes | 200 µM, 6 h | compound remaining | ~85%
C[C@]12CC[C@H]3[C@@H](CC=C4CC(O)CC[C@@]43CO)[C@@H]1CCC2O (some centres unmarked) |  |  | rat, plasma | intraperitoneal, 10 mg/kg | bioavailability | 66%
Nc1c2c(nc3c1C(c1cccc([N+](=O)[O-])c1)c1ccc(OS(=O)(=O)c4ccc(F)cc4)cc1O3)CCCC2 (centres unmarked) | SH-SY5Y | cell growth or viability, MTT |  | 100 µM | viability | 39.6%
[18FH] |  |  | mouse, stomach | intravenous, 1 h | tracer uptake | 0.09 %ID/g
CC(=O)c1c(C)c2cnc(Nc3ccc(C4CCN(CCS(C)(=O)=O)CC4)cn3)nc2n(C2CCCC2)c1=O |  |  | female beagle dog, plasma | oral, 6 mg/kg, multiple doses, once daily | AUC(0-t) | 618 ng·h/mL
COc1ncccc1-c1cnn2ccc(N3CCN(C(=O)OC(C)C)CC3)nc12 | Cyclin-dependent kinase 18 (CDK18, Homo sapiens, UniProt Q07002) | binding, competition with immobilised ligand |  | 1 µM | remaining binding | 100%
C/C=C1/CN2[C@@H]3C[C@@]45c6ccccc6N[C@]4(O3)[C@@H]2C[C@@H]1[C@@]5(COC(C)=O)C(=O)OC |  |  | Caco-2 | pH 7.4 | Papp B→A | 36 ×10⁻⁶ cm/s
CCC[C@@](N)(CO)CCc1ccc(OCCCCCC(C)C)cc1 |  |  | Caco-2 |  | Papp | ≤ 0.5 ×10⁻⁶ cm/s
C=C(C)[C@@H]1CC[C@]2(NCCN3CCS(=O)(=O)CC3)CC[C@]3(C)[C@H](CC[C@@H]4[C@@]5(C)CC=C(C6=CC[C@@](COc7ncccc7C#N)(C(=O)O)CC6)C(C)(C)[C@@H]5CC[C@]43C)[C@@H]12 |  |  | human, plasma | oral, 100 mg, single dose, fasted | AUC(0-t) | 3520 ng·h/mL
C/C=C1/CN2CC[C@]34C(=Nc5ccccc53)[C@@H]2C[C@@H]1C4(COC(C)=O)C(=O)OC (some centres unmarked) |  |  | Caco-2 | pH 7.4 | Papp B→A | 37.7 ×10⁻⁶ cm/s
Cc1cc(C)nc(Nc2ncc(C(=O)NCCc3c(C)[nH]c4ccccc34)cn2)c1 |  |  | C57BL/6 mouse, plasma | intraperitoneal, 8.8 mg/kg | Cmax | 1320 ng/mL
C[C@H]1O[C@@H](O[C@H]2[C@@H](O)C[C@H](O[C@H]3[C@@H](O)C[C@H](O[C@H]4CC[C@@]5(C)[C@H](CC[C@@H]6[C@@H]5C[C@@H](O)[C@]5(C)[C@@H](C7=CC(=O)OC7)CC[C@]65O)C4)O[C@@H]3C)O[C@@H]2C)C[C@H](O)[C@@H]1O |  |  | Caco-2 | 10 µM, 2 h, pH 7.4 | Papp B→A | 27.1 ×10⁻⁶ cm/s
COc1ccc(F)cc1C(=O)NCc1ccc(-c2nn([C@@H](C)C(F)(F)F)c(N)c2C(N)=O)cc1 |  |  | human, plasma | oral, 200 mg, single dose | Cmax | 4880 ng/mL
N=C(N)NCCC[C@@H](NC(=O)[C@@H](N)Cc1ccccc1)C(=O)N[C@@H](Cc1ccccc1)C(=O)N[C@@H](CCCCN)C(N)=O |  |  | human, plasma | subcutaneous, 15 mg, multiple doses, once daily, patients | half-life | 3.9 h
CN1CCN(S(=O)(=O)c2cc([N+](=O)[O-])ccc2N(CCOS(C)(=O)=O)CCOS(C)(=O)=O)CC1 |  |  | female SCID mouse, plasma | intraperitoneal, 25 mg/kg | AUC(0-inf) | 3.34 µM·h
CC(C)(N)CNC(=O)O[C@@H]1CCC[C@]2(C1)OOC1(O2)C2CC3CC(C2)CC1C3 (some centres unmarked) |  |  | male CD-1 mouse, plasma | intravenous, 3 mg/kg | AUC(0-t) | 458 ng·h/mL

SMILES | tested on | assay | system | setting | quantity | result
CN(C)C1(CNC(=O)c2ccc3c(c2)CCN3C(=O)c2ccccc2)CCOCC1 |  |  | male C57BL/6 mouse, plasma | intraperitoneal, 50 mg/kg, 30 min | concentration | 2300 ng/mL
COc1ccccc1N1CCN(Cc2c(NC(C)=O)sc(C)c2C)CC1 | PFF0160c E182D | enzyme activity, inhibitor, absorbance |  |  | IC50 | 568 nM
CC1(C)NC(=O)N(c2ccc(F)c(C(F)(F)F)c2F)C1=O |  | metabolic stability | mouse, liver microsomes |  | microsomal CLint | 9 µL/min/mg
Cl.Cn1c(=O)n(CCCCN2CCC3(CC2)OCc2ccccc23)c2ccccc21 |  |  | male Sprague-Dawley rat, brain | intravenous, 10 mg/kg | half-life | 5.4 h
CC(C)CC(=O)OC[C@H]1O[C@@](C#N)(c2ccc3c(N)ncnn23)[C@H](O)[C@@H]1O |  | metabolic stability | monkey, hepatocytes | 5 µM | half-life | < 0.0727 h
CC[C@H](C)CCCCC(=O)N[C@@H](CCN)C(=O)N[C@H](C(=O)N[C@@H](CCN)C(=O)N[C@H]1CCNC(=O)[C@H]([C@@H](C)O)NC(=O)[C@H](CCN)NC(=O)[C@H](CCN)NC(=O)[C@H](CC(C)C)NC(=O)[C@@H](CC(C)C)NC(=O)[C@H](CCN)NC1=O)[C@@H](C)O |  |  | male Sprague-Dawley rat, plasma | intravenous, 5 mg/kg | MRT(0-inf) | 1.83 h
CC[C@H](C)[C@H](N)C(=O)N[C@@H](CC(C)C)C(=O)NCC(=O)N[C@H](CCCNC(=N)N)C(=O)N[C@H](C(=O)N[C@@H](Cc1c[nH]c2ccccc12)C(=O)N[C@@H](CCCCN)C(=O)NCC(=O)N[C@H](C(=O)N[C@@H](CCCCN)C(=O)N[C@@H](CC(=O)O)C(=O)N[C@H](C(=O)N[C@@H](CC(C)C)C(N)=O)[C@@H](C)CC)[C@@H](C)CC)[C@@H](C)CC |  | chemical stability, HPLC | human, serum | 1 mg/mL, 2 h | compound remaining | ~60%
Cn1c(=O)ccc2ccc(F)c(CCNC[C@H]3CN(c4ncc5c(n4)NC(=O)CO5)C(=O)O3)c21 |  | metabolic stability | human, hepatocytes | 0.5 µM | hepatocyte CLint | 1.1 µL/min/10⁶ cells
Cc1[nH]c(C)c(S(=O)(=O)Nc2ccc(S(F)(F)(F)(F)F)cc2)c1C(=O)N1CCC(F)(F)C1 |  | metabolic stability | mouse, liver microsomes |  | microsomal CLint | 35 µL/min/mg
Nc1ncc(-c2nc(N3CCOCC3)nc(N3CCOCC3)n2)c(C(F)F)n1 | Cyclin-dependent kinase 17 (CDK17, Homo sapiens, UniProt Q00537) | binding, competition with immobilised ligand |  | 10 µM | remaining binding | 100%
O=C(Nc1cccnn1)N1CCN([C@@H]2CCOc3cc(C(F)(F)F)ccc32)CC1 |  |  | male Sprague-Dawley rat, plasma | oral, 3 mg/kg | bioavailability | 91%
N=C(N)NCCC[C@H](NC(=O)[C@H](Cc1ccccc1)NC(=O)[C@H](CCC(N)=O)NC(=O)OCc1ccccc1)C(=O)c1nccs1 |  |  | female C57BL/6 mouse, plasma | intranasal, 5 mg/kg | AUC(0-t) | 126 ng·h/mL
CCOC(=O)c1c(NC(=O)CNC(C)C)sc2c1CCCCC2 |  |  | male mouse, brain | intraperitoneal, 100 mg/kg, single dose | MRT(0-inf) | 2.38 h
Nc1nc(-c2ccccc2)nc2[nH]nc(Nc3ccc(C(F)(F)F)cc3)c12 |  |  | mouse, plasma | oral, 100 mg/kg, 1 h | concentration | 965 ng/mL
NC(=O)CC[C@@H]1NC(=O)[C@H](Cc2ccccc2)NC(=O)[C@H](Cc2ccc(O)cc2)NC(=O)[C@@H](N)CSSC[C@@H](C(=O)N2CCC[C@H]2C(=O)N[C@@H](CCCN=C(N)N)C(=O)NCC(N)=O)NC(=O)[C@H](CC(N)=O)NC1=O |  | chemical stability | male human, serum | 490 µM | half-life | 0.86 h
[2H]c1c([2H])c([C@]2([2H])CCCN2C(=O)C(C)(C)Oc2ccc3cn[nH]c3c2)c([2H])c([2H])c1C([2H])([2H])[2H] | Serine/threonine-protein kinase Sgk2 (SGK2, Homo sapiens, UniProt Q9HBY8) | binding, competition with immobilised ligand |  | 1 µM | remaining binding | 84%
CC(C)C[C@H](NC(=O)[C@H](Cc1ccccc1)NC(=O)[C@H](Cc1ccccc1)NC(=O)Cc1ccc(-c2ccccc2)cc1)C(=O)N[C@@H](CCCCN)C(=O)N[C@@H](CCCNC(=N)N)C(=O)N[C@H](C(=O)N[C@@H](Cc1c[nH]c2ccccc12)C(=O)N[C@@H](CCCCN)C(=O)N[C@@H](CCCNC(=N)N)C(=O)O)C(C)C |  | metabolic stability | dog, liver microsomes | 1 µM | half-life | 0.632 h
Cc1[nH]c(C)c(S(=O)(=O)Nc2ccc(S(=O)(=O)F)c(Cl)c2)c1C(=O)N1CCC(F)(F)C1 |  |  | PAMPA |  | Papp | 1.2 ×10⁻⁶ cm/s
C#Cc1n[nH]c2c(-c3cn([C@@H](C)c4ccccn4)c(=O)[nH]c3=O)cc(F)cc12 | Epidermal growth factor receptor (EGFR, Homo sapiens, UniProt P00533) | enzyme activity, inhibitor |  | 0.1 µM | inhibition | 2.4%

A few entries again:
SMILES | tested on | assay | system | setting | quantity | result
[2H]c1c([2H])c([C@]2([2H])CCCN2C(=O)C(C)(C)Oc2ccc3cn[nH]c3c2)c([2H])c([2H])c1C([2H])([2H])[2H] | Serine/threonine-protein kinase Sgk2 (SGK2, Homo sapiens, UniProt Q9HBY8) | binding, competition with immobilised ligand |  | 1 µM | remaining binding | 84%
C[C@H]1O[C@@H](O[C@H]2[C@@H](O)C[C@H](O[C@H]3[C@@H](O)C[C@H](O[C@H]4CC[C@@]5(C)[C@H](CC[C@@H]6[C@@H]5C[C@@H](O)[C@]5(C)[C@@H](C7=CC(=O)OC7)CC[C@]65O)C4)O[C@@H]3C)O[C@@H]2C)C[C@H](O)[C@@H]1O |  |  | Caco-2 | 10 µM, 2 h, pH 7.4 | Papp B→A | 27.1 ×10⁻⁶ cm/s
C/C=C1/CN2[C@@H]3C[C@@]45c6ccccc6N[C@]4(O3)[C@@H]2C[C@@H]1[C@@]5(COC(C)=O)C(=O)OC |  |  | Caco-2 | pH 7.4 | Papp B→A | 36 ×10⁻⁶ cm/s
